Experimental data of several laboratories.
Lines come from different studies, so protocols differ. ± marks the error that the study gave.

CCCC[C@H](NC(=O)[C@@H](NC(=O)[C@H](CC(=O)O)NC(=O)[C@H](CCC(N)=O)NC(=O)[C@H](CC(C)C)NC(=O)[C@H](CC(C)C)NC(=O)[C@H](CCCN)NC(=O)[C@H](CCCNC(=N)N)NC(=O)[C@H](C)NC(=O)[C@H](CO)NC(=O)[C@H](CC(C)C)NC(=O)[C@H](CCC(N)=O)NC(=O)[C@H](CC)NC(=O)[C@H](CC(C)C)NC(=O)[C@@H](NC(=O)[C@H](CCCN)NC(=O)[C@H](CCCNC(=N)N)NC(=O)[C@H](Cc1ccc(O)cc1)NC(=O)[C@H](CO)NC(=O)[C@H](CCC(N)=O)NC(=O)[C@@H](NC(=O)[C@H](Cc1ccccc1)NC(=O)[C@@H](NC(=O)[C@H](C)NC(=O)[C@H](CC(=O)O)NC(=O)[C@H](C)NC(=O)CCc1ccc(O)cc1)[C@@H](C)CC)[C@@H](C)O)C(C)C)[C@@H](C)CC)C(=O)N[C@@H](CC(=O)O)C(=O)N[C@@H](CCCNC(=N)N)C(=O)NC — relative potency (GH release; male rat, serum; subcutaneous, dose not given, 30 min; baseline: GHRH(1-29)NH2): 122
C=C(c1ccc(C(=O)O)c(F)c1)c1cc2c(cc1C)C(C)(C)C=CC2(C)C — log2 fold change (RNA sequencing, refers to: Mpeg1; rat, brain; dose not given, 24 h; baseline: vehicle): -0.4
Cc1ccccc1-c1cc(N2CCN(C(=O)CCC(=O)O)CC2)ccc1N(C)C(=O)C(C)(C)c1cc(C(F)(F)F)cc(C(F)(F)F)c1 — duration of complete prevention (mechanical allodynia, antagonist, von Frey test; hNK1R-407 mice; intrathecal, 5 µL, 100 nM, together with: capsaicin): 4 h
Cc1cc(O)c(C=O)c2c1C(=O)Oc1c(CO)c(O)c3c(c1O2)C(O)OC3=O (stereo not drawn) — TNF-alpha level (streptozotocin-diabetic male albino rats, serum; dose not given, 9 weeks; baseline: diabetic control): decreased
CCCC[C@H](NC(=O)[C@@H](NC(=O)[C@H](CC(=O)O)NC(=O)[C@H](CCC(N)=O)NC(=O)[C@H](CC(C)C)NC(=O)[C@H](CC(C)C)NC(=O)[C@H](CCCN)NC(=O)[C@H](CCCNC(=N)N)NC(=O)[C@H](C)NC(=O)[C@H](CO)NC(=O)[C@H](CC(C)C)NC(=O)[C@H](CCC(N)=O)NC(=O)[C@H](CC)NC(=O)[C@H](CC(C)C)NC(=O)[C@@H](NC(=O)[C@H](CCCN)NC(=O)[C@H](CCCNC(=N)N)NC(=O)[C@H](Cc1ccc(O)cc1)NC(=O)[C@H](CO)NC(=O)[C@H](CCC(N)=O)NC(=O)[C@@H](NC(=O)[C@H](Cc1c(F)c(F)c(F)c(F)c1F)NC(=O)[C@@H](NC(=O)[C@H](C)NC(=O)[C@H](CC(=O)O)NC(=O)[C@@H](C)NC(=O)[C@H](Cc1ccc(O)cc1)NC)[C@@H](C)CC)[C@@H](C)O)C(C)C)[C@@H](C)CC)C(=O)N[C@@H](CC(=O)O)C(=O)N[C@@H](CCCNC(=N)N)C(=O)NC — relative potency (GH release; rat, male, serum; subcutaneous, 3 µg/kg, 30 min; baseline: reference GHRH agonist JI-38): 1.33
COC(=O)[C@H](CSSC(C)(C)[C@H](NC(=O)[C@H](CCC(=O)NC[C@H](O)[C@@H](O)[C@H](O)[C@H](O)CO)NC(=O)[C@H](CCC(=O)O)NC(=O)[C@H](CCC(=O)NC[C@H](O)[C@@H](O)[C@H](O)[C@H](O)CO)NC(=O)[C@H](CCC(=O)O)NC(=O)[C@H](CCC(=O)NC[C@H](O)[C@@H](O)[C@H](O)[C@H](O)CO)NC(=O)CC[C@H](NC(=O)c1ccc(NCc2cnc3nc(N)[nH]c(=O)c3n2)cc1)C(=O)O)C(=O)O)NC(=O)CC[C@H](NC(=O)c1ccc(NCc2cnc3nc(N)nc(N)c3n2)cc1)C(=O)O — T and B lymphocytes (flow cytometry; Lewis rat, healthy or arthritic, blood; 1000 nmol/kg twice weekly × 1): no effect
CCOC(=O)c1cc2c(N)c(C(=O)OC)sc2nc1C — water intake (Sprague-Dawley rats; subcutaneous, 100 mg/kg every 8 h, long-term dosing): increased
CC12N3Cc4c(c(OCCCS(=O)(=O)[O-])c5ccccc5c4OCCCS(=O)(=O)[O-])CN1C(=O)N1Cc4c(c(OCCCS(=O)(=O)[O-])c5ccccc5c4OCCCS(=O)(=O)[O-])CN(C3=O)C12C.[Na+].[Na+].[Na+].[Na+] (stereo not drawn) — association constant (phase solubility; together with: β-estradiol): 2600 M⁻¹
O=C1c2c(cc(O)c3c2oc2cc(O)c(O)cc23)OC1Cc1ccc(O)cc1 (stereo not drawn) — EC50 (ABTS scavenging, absorbance): 1.16 mM
CSc1nn(-c2ccccc2)c(NC(=O)/C(C#N)=C(\Nc2ccc(F)cc2)Nc2c(C)n(C)n(-c3ccccc3)c2=O)c1C#N — α-SMA positive area (immunohistochemistry; rat CCl4 liver fibrosis; 20 mg/kg/day, 6 weeks): 14.5%
CCCC[C@H](NC(=O)[C@@H](NC(=O)[C@H](CC(=O)O)NC(=O)[C@H](CCC(N)=O)NC(=O)[C@H](CC(C)C)NC(=O)[C@H](CC(C)C)NC(=O)[C@H](CCCN)NC(=O)[C@H](CCCNC(=N)N)NC(=O)[C@H](C)NC(=O)[C@H](CO)NC(=O)[C@H](CC(C)C)NC(=O)[C@H](CCC(N)=O)NC(=O)[C@H](CC)NC(=O)[C@H](CC(C)C)NC(=O)[C@@H](NC(=O)[C@H](CCCN)NC(=O)[C@H](CCCNC(=N)N)NC(=O)[C@H](Cc1ccc(O)cc1)NC(=O)[C@H](CO)NC(=O)[C@@H](NC(=O)[C@@H](NC(=O)[C@H](Cc1ccccc1)NC(=O)[C@@H](NC(=O)[C@H](C)NC(=O)[C@H](CC(=O)O)NC(=O)[C@@H](C)NC(=O)[C@H](Cc1ccc(O)cc1)NC)[C@@H](C)CC)[C@@H](C)O)[C@@H](C)O)C(C)C)[C@@H](C)CC)C(=O)N[C@@H](CC(=O)O)C(=O)N[C@@H](CCCNC(=N)N)C(=O)NC — relative potency (GH release; rat, male, serum; subcutaneous, 3 µg/kg, 30 min; baseline: reference GHRH agonist JI-38): 3.25
CC[C@H](C)[C@@H]1NC(=O)[C@H](Cc2ccc(O)cc2)NC(=O)[C@@H](N)CSSC[C@@H](C(=O)N2CCC[C@H]2C(=O)N[C@@H](CCCCNC(=O)COCCOCCNC(=O)COCCOCCNC(=O)CC[C@H](NC(=O)CC[C@H](NC(=O)CCCCCCCCCCCCCCCCC(=O)O)C(=O)O)C(=O)O)C(=O)NCC(N)=O)NC(=O)[C@H](CC(N)=O)NC(=O)[C@H](CCC(N)=O)NC1=O — food intake suppression (C57BL/6 mice, diet-induced obese; subcutaneous, 2 µmol/kg daily; baseline: vehicle): 21%
CC1OC(Oc2c(-c3ccc(O)cc3)oc3cc(O)cc(O)c3c2=O)C(OC(=O)C=Cc2ccc(O)cc2)C(O)C1OC(=O)C=Cc1ccc(O)cc1 (stereo not drawn) — CD8 T cell share (mouse C57BL/6, subcutaneous Hepa1-6, tumour; dose not given, outcome increased): increased
NS(=O)(=O)NCCc1ccccc1F — ED50 (protection from scPTZ seizures; mouse; together with: pentylenetetrazol 85 mg/kg s.c.): 74 ± 3 mg/kg
C[C@H](CCC(=O)O)[C@H]1CC[C@H]2[C@@H]3CC[C@@H]4C[C@H](OS(=O)(=O)O)CC[C@]4(C)[C@H]3CC[C@]12C — amylase release (pancreatic acinar cells, Gpr39 knock-out, mouse; 500 µM, together with: caerulein 1 nM; baseline: wild type): decreased
COc1c2c(cc3oc(COC4OC(CO)C(O)C(O)C4O)cc(=O)c13)OC(C(C)(C)O)C2 (stereo not drawn) — hot plate latency (analgesic effect; Kunming mouse, female; oral, 1 mg/kg, 0 h, 55 °C, before dosing, 30 s cut-off): 8.29 ± 1.72 s
CCCC[C@H](NC(=O)[C@@H](NC(=O)[C@H](CC(=O)O)NC(=O)[C@H](CCC(N)=O)NC(=O)[C@H](CC(C)C)NC(=O)[C@H](CC(C)C)NC(=O)[C@H](CCCN)NC(=O)[C@H](CCCNC(=N)N)NC(=O)[C@H](C)NC(=O)[C@H](CO)NC(=O)[C@H](CC(C)C)NC(=O)[C@H](CCC(N)=O)NC(=O)[C@H](CC)NC(=O)[C@H](CC(C)C)NC(=O)[C@@H](NC(=O)[C@H](CCCN)NC(=O)[C@H](CCCNC(=N)N)NC(=O)[C@H](Cc1ccc(O)cc1)NC(=O)[C@H](CO)NC(=O)[C@H](CC(N)=O)NC(=O)[C@@H](NC(=O)[C@H](Cc1ccccc1)NC(=O)[C@@H](NC(=O)[C@H](C)NC(=O)[C@H](CC(=O)O)NC(=O)[C@@H](CC)NC(=O)CCc1ccc(O)cc1)[C@@H](C)CC)[C@@H](C)O)C(C)C)[C@@H](C)CC)C(=O)N[C@@H](CO)C(=O)N[C@@H](CCCNC(=N)N)C(=O)NCCCC(N)=O — relative potency (GH release; rat, male, serum; subcutaneous, 3 µg/kg, 30 min; baseline: reference GHRH agonist JI-38): 1.02
CC(C)[C@@H]1NC(=O)[C@H](Cc2ccccc2)NC(=O)[C@]2(CC[C@H](c3ccccc3)CC2)NC(=O)[C@@H](N)CSSC[C@@H](C(=O)N2CCC[C@H]2C(=O)N[C@@H](CCCNC(=N)N)C(=O)NCC(N)=O)NC(=O)[C@H](CC(N)=O)NC1=O — antidiuretic activity (conscious male rat; subcutaneous, dose not given; baseline: AVP 465 IU/mg): 15 IU/mg
CCCC[C@H](NC(=O)[C@@H](NC(=O)[C@H](CC(=O)O)NC(=O)[C@H](CCC(N)=O)NC(=O)[C@H](CC(C)C)NC(=O)[C@H](CC(C)C)NC(=O)[C@H](CCCN)NC(=O)[C@H](CCCNC(=N)N)NC(=O)[C@H](C)NC(=O)[C@H](CO)NC(=O)[C@H](CC(C)C)NC(=O)[C@H](CCC(N)=O)NC(=O)[C@H](CC)NC(=O)[C@H](CC(C)C)NC(=O)[C@@H](NC(=O)[C@H](CCCN)NC(=O)[C@H](CCCNC(=N)N)NC(=O)[C@H](Cc1ccc(O)cc1)NC(=O)[C@H](CO)NC(=O)[C@H](CCC(N)=O)NC(=O)[C@@H](NC(=O)[C@H](Cc1ccccc1)NC(=O)[C@@H](NC(=O)[C@H](C)NC(=O)[C@H](CC(=O)O)NC(=O)[C@H](C)NC(=O)[C@H](Cc1ccc(O)cc1)NC)[C@@H](C)CC)[C@@H](C)O)C(C)C)[C@@H](C)CC)C(=O)N[C@@H](CC(=O)O)C(=O)N[C@@H](CCCNC(=N)N)C(=O)NC — relative potency (GH release; rat, male, serum; subcutaneous, 3 µg/kg, 15 min; baseline: reference GHRH agonist JI-38): 2.69
Cc1nn(-c2ccc(S(=O)(=O)N[C@@H](CO)CC(C)C)cc2)c2nn3nnnc3nc12 — apoptotic cells (PC-3; AO/EB staining; 2 µM, 24 h): 13 ± 1.41%
CC(C)(CCCC/C=C/CCCCCC(C)(C)C(=O)O)C(=O)O — TG AUC(0-4 h) decrease (VLDL-TG secretion; C57BL/6J mice; 100 mg/kg, together with: tyloxapol 600 mg/kg): 75.8%

Some of these lines once more:
O=C1c2c(cc(O)c3c2oc2cc(O)c(O)cc23)OC1Cc1ccc(O)cc1 (stereo not drawn) — EC50 (ABTS scavenging, absorbance): 1.16 mM
CSc1nn(-c2ccccc2)c(NC(=O)/C(C#N)=C(\Nc2ccc(F)cc2)Nc2c(C)n(C)n(-c3ccccc3)c2=O)c1C#N — α-SMA positive area (immunohistochemistry; rat CCl4 liver fibrosis; 20 mg/kg/day, 6 weeks): 14.5%
CCCC[C@H](NC(=O)[C@@H](NC(=O)[C@H](CC(=O)O)NC(=O)[C@H](CCC(N)=O)NC(=O)[C@H](CC(C)C)NC(=O)[C@H](CC(C)C)NC(=O)[C@H](CCCN)NC(=O)[C@H](CCCNC(=N)N)NC(=O)[C@H](C)NC(=O)[C@H](CO)NC(=O)[C@H](CC(C)C)NC(=O)[C@H](CCC(N)=O)NC(=O)[C@H](CC)NC(=O)[C@H](CC(C)C)NC(=O)[C@@H](NC(=O)[C@H](CCCN)NC(=O)[C@H](CCCNC(=N)N)NC(=O)[C@H](Cc1ccc(O)cc1)NC(=O)[C@H](CO)NC(=O)[C@@H](NC(=O)[C@@H](NC(=O)[C@H](Cc1ccccc1)NC(=O)[C@@H](NC(=O)[C@H](C)NC(=O)[C@H](CC(=O)O)NC(=O)[C@@H](C)NC(=O)[C@H](Cc1ccc(O)cc1)NC)[C@@H](C)CC)[C@@H](C)O)[C@@H](C)O)C(C)C)[C@@H](C)CC)C(=O)N[C@@H](CC(=O)O)C(=O)N[C@@H](CCCNC(=N)N)C(=O)NC — relative potency (GH release; rat, male, serum; subcutaneous, 3 µg/kg, 30 min; baseline: reference GHRH agonist JI-38): 3.25
